Published values from different studies.
Each line is one published result; not all experiments were run side by side. ± marks the error that the study gave.

`CC/C=C\C/C=C\C/C=C\C/C=C\C/C=C\CCCCOC(CC)C(=O)O` (stereo not shown): “microvesicular steatosis change” -35% (APOE*3Leiden.CETP mice, high-fat/cholesterol diet; 112 mg/kg/day, 20 weeks; reference: control).
With `CC[C@H](C)[C@H](N)C(=O)N1CCC[C@H]1C(=O)NCC(=O)NCC(=O)O` the activation energy was 18.6 ± 1.43 kcal/mol (diketopiperazine formation, Arrhenius plot, ESI-MS; 1-propanol; 70, 80, 90 °C, 0.5% acetic acid).
The SUVmax of `O=C([O-])CN1CCN(CC(=O)[O-])CCN(CC(=O)NC[C@H]2CC[C@H](C(=O)N[C@H](Cc3cnc4ccccc4c3)C(=O)NCCCC[C@H](NC(=O)N[C@@H](CCC(=O)O)C(=O)O)C(=O)O)CC2)CCN(CC(=O)[O-])CC1.[64Cu+2]` is reported as 7.32 (PET/CT imaging; human, PSMA-positive lymph node lesions; 148 MBq, 2 h post-injection).
`CC[C@H](C)[C@H](NC(=O)[C@H](CCCCN)NC(C)=O)C(=O)N[C@@H](C)C(=O)N[C@@H](C)C(=O)N[C@@H](CC(C)C)C(=O)N[C@@H](CCCCN)C(=O)N[C@@H](CCC(=O)O)C(=O)N[C@@H](CCCCN)C(=O)N[C@H](C(=O)N[C@@H](C)C(=O)N[C@@H](C)C(=O)N[C@@H](CC(C)C)C(=O)N[C@@H](CCCCN)C(=O)N[C@@H](CCC(=O)O)C(=O)N[C@@H](CCCCN)C(=O)N[C@H](C(=O)N[C@H]1CSCc2ccccc2CSC[C@@H](C(=O)NCC(=O)N[C@@H](Cc2c[nH]c3ccccc23)C(N)=O)NC(=O)[C@H](CCCCN)NC(=O)[C@H](CC(C)C)NC(=O)[C@H](C)NC1=O)[C@@H](C)CC)[C@@H](C)CC` gave a content mixing of no more than 93% (sulforhodamine B; lipopeptide-decorated liposomes; 60 min, pH 7.4, 20 °C, up to, 1% cholesterol-PEG4 lipopeptide, 500 µM total lipid).
For `Cc1nc(C)c(C=[N+]([O-])C(C)(C)C)nc1C`, “protein level increase” read 41.3% (Western blot, measured: PGC-1α; mouse, MPTP model, substantia nigra cytosol; 90 mg/kg).
`CN(C)C(=O)c1ccnc(N2Cc3cn(Cc4ccc(F)cc4F)nc3C2)n1` — result for “NeuN+ cell number”: “no effect” (cuprizone-fed mice, corpus callosum; dose not given).
`CCCC[C@H](NC(=O)[C@@H](NC(=O)[C@H](CC(=O)O)NC(=O)[C@H](CCC(N)=O)NC(=O)[C@H](CC(C)C)NC(=O)[C@H](CC(C)C)NC(=O)[C@H](CCCN)NC(=O)[C@H](CCCNC(=N)N)NC(=O)[C@H](C)NC(=O)[C@H](CO)NC(=O)[C@H](CC(C)C)NC(=O)[C@H](CCC(N)=O)NC(=O)[C@H](CC)NC(=O)[C@H](CC(C)C)NC(=O)[C@@H](NC(=O)[C@H](CCCN)NC(=O)[C@H](CCCNC(=N)N)NC(=O)[C@H](Cc1ccc(O)cc1)NC(=O)[C@H](CO)NC(=O)[C@H](CCC(N)=O)NC(=O)[C@@H](NC(=O)[C@H](Cc1ccccc1)NC(=O)[C@@H](NC(=O)[C@H](C)NC(=O)[C@H](CC(=O)O)NC(=O)[C@H](C)NC(=O)[C@H](Cc1ccc(O)cc1)NC)[C@@H](C)CC)[C@@H](C)O)C(C)C)[C@@H](C)CC)C(=O)N[C@@H](CC(=O)O)C(=O)NCCCCNC(=N)N` has a relative potency of 1.45 (GH release; rat, male, serum; subcutaneous, 3 µg/kg, 15 min; reference: reference GHRH agonist JI-38).
For `CCCCCCCOC(=O)Cc1c(C)n(C(=O)c2ccc(Cl)cc2)c2ccc(OC)cc12`, “latency of nociceptive response” read 16.8 ± 0.71 s (hot plate test; BALB/c mice; 100 mg/kg, 60 min).
`CCCC[C@H](NC(=O)[C@@H](NC(=O)[C@H](CC(=O)O)NC(=O)[C@H](CCC(N)=O)NC(=O)[C@H](CC(C)C)NC(=O)[C@H](CC(C)C)NC(=O)[C@H](CCCN)NC(=O)[C@H](CCCNC(=N)N)NC(=O)[C@H](C)NC(=O)[C@H](CO)NC(=O)[C@H](CC(C)C)NC(=O)[C@H](CCC(N)=O)NC(=O)[C@H](CC)NC(=O)[C@H](CC(C)C)NC(=O)[C@@H](NC(=O)[C@H](CCCN)NC(=O)[C@H](CCCNC(=N)N)NC(=O)[C@H](Cc1ccc(O)cc1)NC(=O)[C@H](CO)NC(=O)[C@H](CCC(N)=O)NC(=O)[C@@H](NC(=O)[C@H](Cc1ccccc1)NC(=O)[C@@H](NC(=O)[C@H](C)NC(=O)[C@H](CC(=O)O)NC(=O)[C@@H](C)NC(=O)[C@H](Cc1ccc(O)cc1)NC)[C@@H](C)CC)[C@@H](C)O)C(C)C)[C@@H](C)CC)C(=O)N[C@@H](CC(=O)O)C(=O)N[C@@H](CCCNC(=N)N)C(=O)NCCCCC(N)=O` has a relative potency of 1 to 4 fold (GH release; rat, male, serum; subcutaneous, dose not given, 15 and 30 min; reference: reference GHRH agonist JI-38).
For `Cc1cc2c(cc1C1(c3ncc(C(=O)O)cn3)CC1)C(C)(C)CCC2(C)C`, “log2 fold change” read 0.51 (RNA sequencing, measured: Sfrp5; rat, brain; dose not given, 24 h; reference: vehicle).

Excerpt of the above:
The SUVmax of `O=C([O-])CN1CCN(CC(=O)[O-])CCN(CC(=O)NC[C@H]2CC[C@H](C(=O)N[C@H](Cc3cnc4ccccc4c3)C(=O)NCCCC[C@H](NC(=O)N[C@@H](CCC(=O)O)C(=O)O)C(=O)O)CC2)CCN(CC(=O)[O-])CC1.[64Cu+2]` is reported as 7.32 (PET/CT imaging; human, PSMA-positive lymph node lesions; 148 MBq, 2 h post-injection).
